Measured values of several laboratories.
Protocols differ between the studies behind these lines. ± gives the spread as reported.

For CN(Cc1ccccc1)C(=O)CN1CCN(CC(=O)[O-])CCN(CC(=O)N(C)Cc2ccccc2)CC1.[18F-].[Sc+3], the tracer uptake was 0.12 %ID/g (mouse, heart; intravenous, 1 h).
With CN([O-])C(=O)CN1CCNCCN(CC(=O)N(C)[O-])CC1.[89Zr+4] the tracer uptake was 0.26 %ID/g (mouse, blood; intravenous, 4 h).
CC(C(=O)O)n1nc(Cn2cc3cc(OCC[18F])c(Cl)cc3n2)c2ccccc2c1=O (racemic) gave a tracer uptake of 0.26 %ID/g (rat, heart; 5 min).
The tracer uptake of CN(Cc1ccccc1)C(=O)CN1CCN(CC(=O)[O-])CCN(CC(=O)[O-])CC1.[44Sc+3] is reported as 0.22 %ID/g (mouse, muscle; intravenous, 1 h).
COc1ccc2c(c1)C(C)(C)C(/C=C/C1=C(Oc3ccc(C(=O)NCCCCOc4cc(CN(Cc5ccccn5)Cc5ccccn5)cc(CN(Cc5ccccn5)Cc5ccccn5)c4)cc3)C(=C/C=C3/N(CCCCS(=O)(=O)[O-])c4ccc(OC)cc4C3(C)C)CCC1)=[N+]2CCCCS(=O)(=O)[O-].O=[N+]([O-])[O-].O=[N+]([O-])[O-].[99Tc+].[C-]#[O+].[C-]#[O+].[C-]#[O+].[Zn+2] has a tracer uptake of 1.33 %ID/g (mouse, heart; 12 h).
With CN(Cc1ccccc1)C(=O)CN1CCN(CC(=O)N(C)Cc2ccccc2)CCN(Cc2cccc(C(=O)[O-])n2)CC1.[44Sc+3] the tracer uptake was 0.28 %ID/g (mouse, muscle; intravenous, 1 h).
Cc1nc(N)nc2c1C(=O)N[C@@H](c1ccc(F)cc1-c1cccc(O[11CH3])n1)C2 gave a tracer uptake of 0.7 ± 0.03 %ID (ex vivo biodistribution; mice, MDA-MB-231 subcutaneous xenograft, heart; 60 min post-injection, baseline, vehicle pre-treatment).
CN([O-])C(=O)CN1CCN(CC(=O)N(C)[O-])CCN(Cc2ccccn2)CC1.[89Zr+4] gave a tracer uptake of 0.41 %ID/g (mouse, liver; intravenous, 4 h).
For CN(O)C(=O)CCC(=O)NCCCN(CCCCN(CCCNC(=O)CCC(=O)N(C)O)C(=O)CCC(=O)N(C)O)C(=O)CCC(=O)N(C)O.[89Zr], the tracer uptake was 0.09 %ID/g (mouse, brain; 1 h).
With O=C([O-])CN1CCN(CC(=O)[O-])CCN(Cc2cccc(C(=O)[O-])n2)CC1.[177Lu+3] the tracer uptake was 0.72 %ID/g (mouse, liver; intravenous, 1 h).
For CC(=O)N([O-])CCCCCNC(=O)CCC(=O)N([O-])CCCCCNC(=O)CCC(=O)N([O-])CCCCCN.[89Zr+4], the tracer uptake was 0.17 %ID/g (mouse, pancreas; 1 h).
With [123I]c1ccc2nc(-c3ccc(-n4ccnn4)nc3)cn2c1 the tracer uptake was 0.049 %ID/g (male Wistar rat, heart; intravenous, 4 MBq, 6 h).

For quick reference, copied from above:
With CN([O-])C(=O)CN1CCNCCN(CC(=O)N(C)[O-])CC1.[89Zr+4] the tracer uptake was 0.26 %ID/g (mouse, blood; intravenous, 4 h).
CC(C(=O)O)n1nc(Cn2cc3cc(OCC[18F])c(Cl)cc3n2)c2ccccc2c1=O (racemic) gave a tracer uptake of 0.26 %ID/g (rat, heart; 5 min).
